Measured values of several laboratories.
Compare with care: the assays were run in different laboratories. Numbers after ± are the reported error.
Organism: Bacillus subtilis

For `CC[C@H](C)[C@H](NC(=O)[C@H](CO)NC(=O)[C@@H](NC(=O)[C@H](C)NC(=O)[C@H](CCC(N)=O)NC(=O)CNC(=O)[C@@H](NC(=O)[C@@H](NC(=O)CNC(=O)[C@@H](NC(=O)[C@H](C)NC(=O)[C@@H]1CCCN1C(=O)CNC(=O)[C@H](C)NC(=O)[C@H](CCCCN)NC(=O)[C@@H](NC(=O)[C@@H](NC(=O)CNC(=O)[C@H](CC(=O)O)NC(=O)[C@H](CCCNC(=N)N)NC(=O)[C@@H](NC(=O)[C@H](CCCCN)NC(=O)[C@H](CCCNC(=N)N)NC(=O)CNC(=O)[C@@H](NC(=O)[C@H](CCCCN)NC(=O)[C@H](CCC(=O)O)NC(=O)[C@@H](NC(=O)[C@H](CCCCN)NC(=O)[C@H](CCCCN)NC(=O)[C@H](CC(C)C)NC(=O)[C@H](Cc1ccccc1)NC(=O)[C@H](CCCCN)NC(=O)[C@H](Cc1c[nH]c2ccccc12)NC(=O)[C@@H](N)CCCNC(=N)N)[C@@H](C)CC)C(C)C)C(C)C)C(C)C)[C@@H](C)CC)C(C)C)C(C)C)C(C)C)[C@@H](C)O)C(=O)N[C@@H](Cc1ccc(O)cc1)C(=O)N[C@@H](CCCCN)C(N)=O`, the MIC was 50 ± 19 mg/L (broth microdilution; 20 h, 37 °C).
With `CC[C@H](C)[C@H](NC(=O)[C@H](C)NC(=O)[C@H](CCCCN)NC(=O)[C@H](CC(C)C)NC(=O)[C@H](C)NC(=O)[C@@H](NC(=O)[C@H](Cc1c[nH]cn1)NC(=O)[C@H](CC(C)C)NC(=O)[C@@H](NC(=O)[C@@H](NC(=O)[C@H](CCCCN)NC(=O)[C@H](CCCCN)NC(=O)[C@H](C)NC(=O)[C@H](CO)NC(=O)[C@H](CCCCN)NC(=O)[C@H](Cc1ccccc1)NC(=O)[C@@H](NC(=O)[C@H](CCCCN)NC(=O)[C@H](CC(C)C)NC(=O)[C@H](Cc1ccccc1)NC(=O)[C@H](CO)NC(=O)[C@H](CCCCN)NC(=O)[C@H](Cc1c[nH]c2ccccc12)NC(=O)[C@H](CCCCN)NC(C)=O)[C@@H](C)O)[C@@H](C)O)C(C)C)[C@@H](C)O)C(=O)N[C@@H](CO)C(=O)N[C@@H](CO)C(N)=O` the MIC was 8 mg/L (broth dilution; ATCC 49619, Mueller-Hinton broth; 24 h, 37 °C).
With `CC[C@H](C)[C@H](NC(=O)CN)C(=O)NCC(=O)N[C@@H](C)C(=O)N[C@H](C(=O)N[C@@H](CC(C)C)C(=O)N[C@@H](CCCCN)C(=O)N[C@H](C(=O)N[C@@H](CC(C)C)C(=O)N[C@H](C(=O)N[C@H](C(=O)NCC(=O)N[C@@H](CC(C)C)C(=O)N1CCC[C@H]1C(=O)N[C@@H](C)C(=O)N[C@@H](CC(C)C)C(=O)N[C@H](C(=O)N[C@@H](CO)C(=O)N[C@@H](Cc1c[nH]c2ccccc12)C(=O)N[C@H](C(=O)N[C@@H](CCCCN)C(=O)N[C@@H](CCCNC(=N)N)C(=O)N[C@@H](CCCCN)C(=O)N[C@@H](CCCNC(=N)N)C(=O)N[C@@H](CCC(N)=O)C(=O)N[C@@H](CCC(N)=O)C(N)=O)[C@@H](C)CC)[C@@H](C)CC)[C@@H](C)O)[C@@H](C)O)C(C)C)C(C)C` the MIC was 0.8 µM (broth microdilution; KCTC 3068; 16 h, 37 °C).
With `CC[C@H](C)[C@H](N)C(=O)N[C@@H](CCCCN)C(=O)N[C@@H](Cc1c[nH]c2ccccc12)C(=O)N[C@@H](CCCCN)C(=O)N[C@@H](CCCCN)C(=O)N[C@@H](CC(C)C)C(=O)N[C@@H](CC(C)C)C(=O)N[C@@H](CCCNC(=N)N)C(=O)N[C@@H](C)C(=O)N[C@@H](C)C(=O)N[C@@H](CCCCN)C(=O)N[C@@H](CCCNC(=N)N)C(=O)N[C@H](C(=O)N[C@@H](CC(C)C)C(N)=O)[C@@H](C)CC` the MIC was 12.5 µM (broth microdilution; 168).
For `CCCCCCCCCCCc1cc(O)cc(O)c1`, the MIC was 1 to 8 mg/L (broth microdilution; strain 168; overnight, 37 °C).
`O=C(O)CCN1C(=O)/C(=C/c2ccc(-c3ccc(Cl)cc3Cl)o2)SC1=S` has an MIC of ~0.43 mg/L (microbial growth; ATCC6051).
With `CCCCCCCC/C=C\CCCc1cc(O)cc(O)c1` the MIC was 1 to 8 mg/L (broth microdilution; strain 168; overnight, 37 °C).
`CC[C@H](C)[C@H](NC(=O)CNC(=O)[C@H](CC(=O)O)NC(=O)[C@H](CCCNC(=N)N)NC(=O)[C@@H](NC(=O)[C@H](CC(N)=O)NC(=O)[C@H](CCCNC(=N)N)NC(=O)CNC(=O)[C@@H](NC(=O)[C@H](CCCCN)NC(=O)[C@H](CCC(=O)O)NC(=O)[C@@H](NC(=O)[C@H](CCCCN)NC(=O)[C@H](CCCCN)NC(=O)[C@H](Cc1ccccc1)NC(=O)[C@@H](NC(=O)[C@H](CCCCN)NC(=O)[C@H](Cc1c[nH]c2ccccc12)NC(=O)[C@@H](N)CCCCN)[C@@H](C)CC)[C@@H](C)CC)C(C)C)C(C)C)C(=O)N[C@H](C(=O)N[C@@H](CCCCN)C(=O)N[C@@H](C)C(=O)NCC(=O)N1CCC[C@H]1C(=O)N[C@@H](C)C(=O)N[C@H](C(=O)N[C@@H](CCC(N)=O)C(=O)N[C@H](C(=O)N[C@H](C(=O)NCC(=O)N[C@@H](CCC(N)=O)C(=O)N[C@@H](C)C(=O)N[C@H](C(=O)N[C@@H](CO)C(=O)N[C@H](C(=O)N[C@@H](C)C(=O)N[C@@H](CCCCN)C(N)=O)[C@@H](C)CC)[C@@H](C)O)C(C)C)C(C)C)C(C)C)[C@@H](C)CC` gave an MIC of 131 ± 46.1 mg/L (broth microdilution; 20 h, 37 °C).
`Cc1cc(Cl)ccc1-c1ccc(/C=C2\SC(=S)N(CC(=O)O)C2=O)o1` has an MIC of ~3 mg/L (microbial growth; ATCC6051).

A few entries again:
With `CC[C@H](C)[C@H](NC(=O)[C@H](C)NC(=O)[C@H](CCCCN)NC(=O)[C@H](CC(C)C)NC(=O)[C@H](C)NC(=O)[C@@H](NC(=O)[C@H](Cc1c[nH]cn1)NC(=O)[C@H](CC(C)C)NC(=O)[C@@H](NC(=O)[C@@H](NC(=O)[C@H](CCCCN)NC(=O)[C@H](CCCCN)NC(=O)[C@H](C)NC(=O)[C@H](CO)NC(=O)[C@H](CCCCN)NC(=O)[C@H](Cc1ccccc1)NC(=O)[C@@H](NC(=O)[C@H](CCCCN)NC(=O)[C@H](CC(C)C)NC(=O)[C@H](Cc1ccccc1)NC(=O)[C@H](CO)NC(=O)[C@H](CCCCN)NC(=O)[C@H](Cc1c[nH]c2ccccc12)NC(=O)[C@H](CCCCN)NC(C)=O)[C@@H](C)O)[C@@H](C)O)C(C)C)[C@@H](C)O)C(=O)N[C@@H](CO)C(=O)N[C@@H](CO)C(N)=O` the MIC was 8 mg/L (broth dilution; ATCC 49619, Mueller-Hinton broth; 24 h, 37 °C).
